Measurements of several laboratories.
A part holds a random share of what one study measured.
UniProt P42684, sequence (whole entry, looked up): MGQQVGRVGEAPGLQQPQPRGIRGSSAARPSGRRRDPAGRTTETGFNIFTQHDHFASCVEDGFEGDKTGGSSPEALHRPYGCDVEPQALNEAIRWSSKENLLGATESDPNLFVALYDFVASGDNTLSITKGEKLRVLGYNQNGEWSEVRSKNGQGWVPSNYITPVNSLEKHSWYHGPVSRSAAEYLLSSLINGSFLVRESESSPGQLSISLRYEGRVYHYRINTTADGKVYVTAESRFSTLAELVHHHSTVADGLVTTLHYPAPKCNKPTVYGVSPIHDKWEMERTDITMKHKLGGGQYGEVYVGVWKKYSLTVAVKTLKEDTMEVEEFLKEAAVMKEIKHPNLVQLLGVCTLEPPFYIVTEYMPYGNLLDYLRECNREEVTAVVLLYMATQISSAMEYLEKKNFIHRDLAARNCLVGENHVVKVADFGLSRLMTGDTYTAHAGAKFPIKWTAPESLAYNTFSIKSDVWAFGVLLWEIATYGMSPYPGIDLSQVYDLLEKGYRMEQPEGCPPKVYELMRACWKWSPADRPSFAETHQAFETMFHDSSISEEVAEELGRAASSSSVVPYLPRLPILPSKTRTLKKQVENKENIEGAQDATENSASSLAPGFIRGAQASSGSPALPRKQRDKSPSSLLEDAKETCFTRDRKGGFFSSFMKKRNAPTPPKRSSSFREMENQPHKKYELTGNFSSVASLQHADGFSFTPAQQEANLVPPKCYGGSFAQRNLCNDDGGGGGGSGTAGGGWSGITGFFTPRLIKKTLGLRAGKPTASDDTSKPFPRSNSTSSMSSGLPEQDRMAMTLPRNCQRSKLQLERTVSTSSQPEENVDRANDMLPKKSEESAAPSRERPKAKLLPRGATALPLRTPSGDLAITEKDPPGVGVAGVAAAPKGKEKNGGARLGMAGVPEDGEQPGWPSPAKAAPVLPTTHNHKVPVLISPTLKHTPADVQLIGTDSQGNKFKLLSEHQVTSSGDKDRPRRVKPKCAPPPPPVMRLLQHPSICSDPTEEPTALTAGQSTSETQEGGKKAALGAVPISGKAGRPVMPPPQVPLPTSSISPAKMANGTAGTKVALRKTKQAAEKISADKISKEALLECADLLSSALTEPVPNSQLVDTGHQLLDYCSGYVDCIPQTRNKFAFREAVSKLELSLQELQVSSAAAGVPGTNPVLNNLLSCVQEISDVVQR

Study 1
Target: Interferon regulatory factor 1, DNA-binding domain (IRF1, Homo sapiens, UniProt P10914, residues 1-114)
Method: protein-binding microarray
Form: hairpin DNA
Sample: in vitro
Concentration: not given
Notes: whole hairpin DNA, median over replicate spots
Reference: not given
Reading: higher = stronger binding
Measurement: median fluorescence
Target sequence (chain): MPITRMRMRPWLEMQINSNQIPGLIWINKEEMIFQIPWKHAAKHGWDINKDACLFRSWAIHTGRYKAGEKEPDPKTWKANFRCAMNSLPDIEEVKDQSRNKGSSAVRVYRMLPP
GAGGCCCGAAAGTGAGACGCCTCCTGGCGTCTCACTTTCGGGCCTCACAC (5mC at 31): 580 a.u.
GAGGCCCCAAAGCGAAACGCCTCCTGGCGTTTCGCTTTGGGGCCTCACAC (5mC at 8): 907 a.u.
GAGGCCCGAAAGTGACGCGCCTCCTGGCGCGTCACTTTCGGGCCTCACAC: 539 a.u.
GAGGCCCGAAAGCGAAACGCCTCCTGGCGTTTCGCTTTCGGGCCTCACAC (5mC at 33 39): 949 a.u.
GAGGCCCGAAAGCGACGCGCCTCCTGGCGCGTCGCTTTCGGGCCTCACAC (5mC at 16): 544 a.u.
GAGGCCCGAAAGCGAGACGCCTCCTGGCGTCTCGCTTTCGGGCCTCACAC (5mC at 31): 553 a.u.
GAGGCCCGAAAGTGAACGGCCTCCTGGCCGTTCACTTTCGGGCCTCACAC (5mC at 17 29): 530 a.u.
GAGGCCCGAAAGCGATACGCCTCCTGGCGTATCGCTTTCGGGCCTCACAC: 530 a.u.

Study 2
Target: RING finger protein unkempt homolog, zinc fingers 1-6, GST-SBP tag (UNK, Homo sapiens, UniProt Q9C0B0, residues 30-357)
UniProt Q9C0B0, sequence (30-357, looked up): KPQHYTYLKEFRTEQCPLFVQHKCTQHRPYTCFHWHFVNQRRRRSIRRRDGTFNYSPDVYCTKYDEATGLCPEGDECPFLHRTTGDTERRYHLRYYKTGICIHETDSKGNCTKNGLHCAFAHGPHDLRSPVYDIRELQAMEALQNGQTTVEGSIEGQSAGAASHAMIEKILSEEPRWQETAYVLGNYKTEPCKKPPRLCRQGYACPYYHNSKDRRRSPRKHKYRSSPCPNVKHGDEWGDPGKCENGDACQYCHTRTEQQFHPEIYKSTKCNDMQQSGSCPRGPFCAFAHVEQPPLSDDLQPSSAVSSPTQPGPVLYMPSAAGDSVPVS
Method: RNA Bind-n-Seq
Form: RNA
Sample: in vitro
Concentration: not given
Notes: RNA with constant flanks, ends assumed
Reference: input RNA pool
Reading: higher = stronger binding
Measurement: bound/input enrichment
All sequences stand within: GGGAGUUCUACAGUCCGACGAUC … CAACAGAGGAUUGAGCAUCA
UGUGCAUUGGGUUAAAAACGACAACCAACAUCAGCCAUGAAAGAUCCAAGUCGCAGCAGUACCCGCCCAAGCAUCAUCAAUGAAGAUGUGAUUAUUAACGGUCAUUCUCAUGAAGAUGAC: 0.122 ratio
GUCUCCUUUUUUGGCCCUAGGCUGGUUAGGAACCUGUACACCUUCACUCUCUCAUCAUUAAACCGUGGCCUUUUUCAGUAUUUCCUCUCUCCCCUCUAUAAGUUGCUGAAAUCACAAAGC: 0.659 ratio
GUUAUGGGUGUGAGAGGUUUGCAAGGAUUUGUGGGAAGUACCUGCCCACAUAUAUGUACAGCCGUAAAUUUCAAAGAACUGGCAGAGCACCACCGAAGCAAGUAUCCUGGAUGUACCCCU: 0.298 ratio
UUCAAAAUCGGAGCAUGUCGUCAUGGAGACAGAUGUUCUCGGUUGCACAAUAAACCAACCUUCCGCCAGACCAUUGCCCUCUUGAACAUUUACCGUAACCCUCAAAACUCUUCCCAGUCU: 0.133 ratio
GAACCGAAAGGCCAAAUUCCCUCCUCCCUUCUACUGCUUCUACCAACUGGAAGCACAGAAAACCCGAAUUUCAUUUAUUUUGUUUUUAAAAUAUAUAUGUUGAUUUCUUGUAACAUCCAA: 0.294 ratio
UGGAGGGGAAUCCUAUUAUUUGGGCCGCCUGGAACAGGAAAGUCCUACUUAGCCAAAGCUGCCGCAACAGAAGCCAACAACUCAACAUUUUUUUCAAUAUCUUCCUCUGAUCUUGUUUCU: 2.16 ratio
AAUCAGUUUGAGACAGAAUUAUGAAUAGAGAUCUAUCAGUAACUUUUGCAUUUCACACCACCGCCCGAGUUUGGCUCACCAAUAACUUGUAUAUAUUUUGAAUGGGAAACACAUGGGUGC: 0.749 ratio
AUCUCCGCUAUGAACAAGGUGGCUGAAGUUUUACAAGUACCUCCAAUGAGAGUAUAUGAAGCCGCAACUUUUUAUACAAUGUAUAAUCGAAAGCCAGUUGGGAAGUACCAUAUCCAGGUC: 0.12 ratio

Study 3
Target: PABPC1L2, full length, GST fusion (mouse, UniProt A0ABA7IW68)
Method: RNAcompete
Form: RNA
Sample: in vitro
Concentration: 20 nM
Notes: 7-mer, probes averaged, single round
Reference: mean of 7-mers
Reading: higher = stronger binding
Measurement: 7-mer Z-score
Target sequence (chain): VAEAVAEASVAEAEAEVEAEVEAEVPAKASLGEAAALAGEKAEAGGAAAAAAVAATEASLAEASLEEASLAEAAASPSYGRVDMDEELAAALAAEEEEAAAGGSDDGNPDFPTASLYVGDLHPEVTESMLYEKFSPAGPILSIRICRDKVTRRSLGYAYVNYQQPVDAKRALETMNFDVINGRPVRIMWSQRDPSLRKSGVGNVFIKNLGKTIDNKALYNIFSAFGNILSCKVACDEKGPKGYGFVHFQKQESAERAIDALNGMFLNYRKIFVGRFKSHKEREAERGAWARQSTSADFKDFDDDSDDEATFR
GCAGCUU: -0.104
GCCAACG: -0.0391
GCCUGUU: -0.365
CGCCCUU: -0.441
CGGGAGA: -0.0826
GUCGACG: -0.182
GAUUUCU: -0.358
UCGCGGA: -0.153

Single results of other studies
Cc1cn(-c2cc(NC(=O)c3ccc(C)c(Nc4nccc(-c5cccnc5)n4)c3)cc(C(F)(F)F)c2)cn1
remaining activity (Tyrosine-protein kinase ABL2 (ABL2, Homo sapiens, UniProt P42684); enzyme activity, inhibitor; 0.5 µM): 4.86%

A few entries again (study 1):
GAGGCCCGAAAGTGAACGGCCTCCTGGCCGTTCACTTTCGGGCCTCACAC (5mC at 17 29): 530 a.u.
GAGGCCCGAAAGCGAGACGCCTCCTGGCGTCTCGCTTTCGGGCCTCACAC (5mC at 31): 553 a.u.
GAGGCCCGAAAGCGACGCGCCTCCTGGCGCGTCGCTTTCGGGCCTCACAC (5mC at 16): 544 a.u.
GAGGCCCCAAAGCGAAACGCCTCCTGGCGTTTCGCTTTGGGGCCTCACAC (5mC at 8): 907 a.u.
